Experimental data of several laboratories.
Several values in a cell are separate wells, animals, samples, runs or records. Numbers after ± are the reported error.
PIH1D1: PIH1D1 1-180 (Homo sapiens, UniProt Q9NWS0)
Chain of UniProt Q9NWS0 (whole entry, unmodified, looked up): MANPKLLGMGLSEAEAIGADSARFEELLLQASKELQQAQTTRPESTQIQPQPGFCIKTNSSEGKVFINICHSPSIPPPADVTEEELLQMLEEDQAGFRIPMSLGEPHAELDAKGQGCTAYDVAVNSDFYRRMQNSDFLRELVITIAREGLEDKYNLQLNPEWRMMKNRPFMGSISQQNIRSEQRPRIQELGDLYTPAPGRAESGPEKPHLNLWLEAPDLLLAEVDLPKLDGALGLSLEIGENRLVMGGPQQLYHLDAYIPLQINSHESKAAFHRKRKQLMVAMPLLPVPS
B1: ING2 189-262 E205A (Arabidopsis thaliana, UniProt B3H615); sequence looked up; chain NRKDLMPIEEQPIDPNAPTYCVCHQVSFGDMIACDNENCQGGEWFHYTCVGLTPETRFKGKWYCPTCRLLPQSH
B2: PVRIG 41-172 (Homo sapiens, UniProt Q6DKI7); sequence looked up; chain TPEVWVQVRMEATELSSFTIRCGFLGSGSISLVTVSWGGPNGAGGTTLAVLHPERGIRQWAPARQARWETQSSISLILEGSGASSPCANTTFCCKFASFPEGSWEACGSLPPSSDPGLSAPPTPAPILRADL
B3: ING1 163-234 M191A (Arabidopsis thaliana, UniProt Q9LIQ6); sequence looked up; chain TSSNMDLDLPVDPNEPTYCICNQVSFGEAVACDNNACKIEWFHFGCVGLKEQPKGKWYCPECATVKKSRKGR
B4: SEPTIN6 (Homo sapiens, UniProt Q14141); sequence looked up; chain MAATDIARQVGEGCRTVPLAGHVGFDSLPDQLVNKSVSQGFCFNILCVGETGLGKSTLMDTLFNTKFEGEPATHTQPGVQLQSNTYDLQESNVRLKLTIVSTVGFGDQINKEDSYKPIVEFIDAQFEAYLQEELKIRRVLHTYHDSRIHVCLYFIAPTGHSLKSLDLVTMKKLDSKVNIIPIIAKADAISKSELTKFKIKITSELVSNGVQIYQFPTDDESVAEINGTMNAHLPFAVIGSTEELKIGNKMMRARQYPWGTVQVENEAHCDFVKLREMLIRVNMEDLREQTHTRHYELYRRCKLEEMGFKDTDPDSKPFSLQETYEAKRNEFLGELQKKEEEMRQMFVQRVKEKEAELKEAEKELHEKFDRLKKLHQDEKKKLEDKKKSLDDEVNAFKQRKTAAELLQSQGSQAGGSQTLKRDKEKKNNPWLCTE
B5: ING2 189-262 Y208A (Arabidopsis thaliana, UniProt B3H615); sequence looked up; chain NRKDLMPIEEQPIDPNEPTACVCHQVSFGDMIACDNENCQGGEWFHYTCVGLTPETRFKGKWYCPTCRLLPQSH
B6: LMNA 389-572 (Homo sapiens, UniProt P02545-2); sequence looked up; chain LSPSPTSQRSRGRASSHSSQTQGGGSVTKKRKLESTESRSSFSQHARTSGRVAVEEVDEEGKFVRLRNKSNEDQSMGNWQIKRQNGDDPLLTYRFPPKFTLKAGQVVTIWAAGAGATHSPPTDLVWKAQNTWGCGNSLRTALINSTGEEVAMRKLVRSVTVVEDDEDEDGDDLLHHHHVSGSRR
B7: mdfA (Bacillus subtilis, UniProt O31597); chain MLFLHDVWVNWFEGEENGYNVCHFHEWRKEDTVELLDQVPLLRVPSVLFHYIENDLSELPKGLLEDVHQKSYIRKNHERTKLEYCFVVTDGIGILAVDTIGYTIPVRKSRLIPRQEQLVYEMVKDVEPETYEFEPKKLESSKEYHILSLAPEHVRGLTRKERQIKQLMFMALDQLKGLKNRAEIGYWYTEWNPHMYEQIKRMSFEEIWDMLYNETIEGWSDKHLAFCENLIKGQPFFEKLWEMENESKVN
Chain of UniProt Q64663 (whole entry, unmodified, looked up): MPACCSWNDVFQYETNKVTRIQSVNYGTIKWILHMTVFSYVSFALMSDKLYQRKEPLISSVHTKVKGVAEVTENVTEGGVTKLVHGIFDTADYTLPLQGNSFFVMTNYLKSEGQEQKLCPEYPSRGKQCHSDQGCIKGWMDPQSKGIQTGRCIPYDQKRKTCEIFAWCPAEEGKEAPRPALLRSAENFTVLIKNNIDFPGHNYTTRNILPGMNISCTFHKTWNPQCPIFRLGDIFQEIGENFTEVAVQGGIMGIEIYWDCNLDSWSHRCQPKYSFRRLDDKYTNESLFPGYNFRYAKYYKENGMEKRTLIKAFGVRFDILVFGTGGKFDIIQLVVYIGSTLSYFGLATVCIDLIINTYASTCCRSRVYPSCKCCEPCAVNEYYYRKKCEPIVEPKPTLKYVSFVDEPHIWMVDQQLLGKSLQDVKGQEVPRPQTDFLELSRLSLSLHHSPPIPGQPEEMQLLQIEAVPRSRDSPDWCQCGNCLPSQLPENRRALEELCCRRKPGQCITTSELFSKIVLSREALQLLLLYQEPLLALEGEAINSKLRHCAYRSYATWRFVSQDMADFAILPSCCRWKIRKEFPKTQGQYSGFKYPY
Chain of UniProt P20936 (whole entry, unmodified, looked up): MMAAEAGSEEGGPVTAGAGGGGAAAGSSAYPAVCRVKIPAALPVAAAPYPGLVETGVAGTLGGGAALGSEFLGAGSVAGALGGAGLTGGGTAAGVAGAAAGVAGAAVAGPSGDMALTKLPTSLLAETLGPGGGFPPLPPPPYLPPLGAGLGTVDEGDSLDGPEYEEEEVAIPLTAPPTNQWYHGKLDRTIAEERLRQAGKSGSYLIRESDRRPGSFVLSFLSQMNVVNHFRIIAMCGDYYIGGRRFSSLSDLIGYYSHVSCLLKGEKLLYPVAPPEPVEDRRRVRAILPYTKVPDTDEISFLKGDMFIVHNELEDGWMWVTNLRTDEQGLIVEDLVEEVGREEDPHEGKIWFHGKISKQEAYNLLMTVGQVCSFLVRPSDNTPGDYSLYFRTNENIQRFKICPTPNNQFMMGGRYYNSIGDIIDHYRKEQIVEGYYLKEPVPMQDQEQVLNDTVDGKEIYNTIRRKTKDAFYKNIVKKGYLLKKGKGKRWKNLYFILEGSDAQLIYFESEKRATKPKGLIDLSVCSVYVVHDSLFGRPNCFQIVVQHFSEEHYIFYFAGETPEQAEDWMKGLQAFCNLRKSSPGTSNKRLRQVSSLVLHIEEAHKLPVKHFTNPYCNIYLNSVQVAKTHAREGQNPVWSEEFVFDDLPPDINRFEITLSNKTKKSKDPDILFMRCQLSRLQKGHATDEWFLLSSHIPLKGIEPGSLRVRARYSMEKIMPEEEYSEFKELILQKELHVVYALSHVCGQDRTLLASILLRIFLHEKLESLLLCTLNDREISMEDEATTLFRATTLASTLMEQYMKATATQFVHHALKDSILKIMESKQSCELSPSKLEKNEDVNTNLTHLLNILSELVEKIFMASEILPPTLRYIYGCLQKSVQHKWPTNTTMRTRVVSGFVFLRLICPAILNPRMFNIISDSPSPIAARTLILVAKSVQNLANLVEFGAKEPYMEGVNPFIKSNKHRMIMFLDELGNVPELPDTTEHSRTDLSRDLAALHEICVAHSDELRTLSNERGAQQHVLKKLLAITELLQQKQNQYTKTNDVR
Chain of UniProt O95619 (whole entry, looked up): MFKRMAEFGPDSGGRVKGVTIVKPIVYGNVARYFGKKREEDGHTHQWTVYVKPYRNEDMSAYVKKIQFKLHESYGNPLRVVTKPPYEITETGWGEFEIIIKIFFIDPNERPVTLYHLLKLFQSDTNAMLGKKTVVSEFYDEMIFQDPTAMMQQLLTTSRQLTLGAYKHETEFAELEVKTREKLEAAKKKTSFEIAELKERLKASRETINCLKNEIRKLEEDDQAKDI
Chain of UniProt Q8RWU7 (whole entry, looked up): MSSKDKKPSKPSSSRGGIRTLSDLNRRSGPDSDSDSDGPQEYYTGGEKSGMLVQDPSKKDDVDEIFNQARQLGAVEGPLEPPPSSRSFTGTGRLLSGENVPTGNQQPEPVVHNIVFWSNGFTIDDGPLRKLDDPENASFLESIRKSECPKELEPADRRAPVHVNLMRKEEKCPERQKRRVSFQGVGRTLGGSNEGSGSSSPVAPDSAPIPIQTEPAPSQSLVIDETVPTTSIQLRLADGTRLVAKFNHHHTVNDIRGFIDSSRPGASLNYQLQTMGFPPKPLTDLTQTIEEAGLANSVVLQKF
Chain of UniProt P42208 (whole entry, looked up): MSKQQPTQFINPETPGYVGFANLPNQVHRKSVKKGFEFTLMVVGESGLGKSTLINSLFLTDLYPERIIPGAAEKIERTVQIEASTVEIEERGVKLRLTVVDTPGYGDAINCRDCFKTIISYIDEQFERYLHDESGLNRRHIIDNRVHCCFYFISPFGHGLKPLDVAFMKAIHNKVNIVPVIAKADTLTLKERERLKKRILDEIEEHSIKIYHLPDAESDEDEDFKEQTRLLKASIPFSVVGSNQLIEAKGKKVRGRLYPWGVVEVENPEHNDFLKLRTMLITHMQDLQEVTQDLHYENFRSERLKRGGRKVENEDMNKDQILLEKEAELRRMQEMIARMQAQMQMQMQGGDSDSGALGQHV
Chain of UniProt Q9ZU93 (whole entry, looked up): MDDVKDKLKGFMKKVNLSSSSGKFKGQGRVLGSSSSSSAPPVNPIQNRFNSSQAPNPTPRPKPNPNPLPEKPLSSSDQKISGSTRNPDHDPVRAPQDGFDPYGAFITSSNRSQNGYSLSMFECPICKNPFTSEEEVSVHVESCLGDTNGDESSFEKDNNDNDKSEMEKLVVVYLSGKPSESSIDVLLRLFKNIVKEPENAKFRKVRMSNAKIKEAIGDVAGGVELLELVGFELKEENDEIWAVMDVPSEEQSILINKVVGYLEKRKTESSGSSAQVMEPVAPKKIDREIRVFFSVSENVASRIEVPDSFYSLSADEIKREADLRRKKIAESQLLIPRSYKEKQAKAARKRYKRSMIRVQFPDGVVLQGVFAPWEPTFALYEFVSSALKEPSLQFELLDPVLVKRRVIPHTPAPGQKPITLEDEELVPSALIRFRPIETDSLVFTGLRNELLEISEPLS
Chain of UniProt P36956 (whole entry, looked up): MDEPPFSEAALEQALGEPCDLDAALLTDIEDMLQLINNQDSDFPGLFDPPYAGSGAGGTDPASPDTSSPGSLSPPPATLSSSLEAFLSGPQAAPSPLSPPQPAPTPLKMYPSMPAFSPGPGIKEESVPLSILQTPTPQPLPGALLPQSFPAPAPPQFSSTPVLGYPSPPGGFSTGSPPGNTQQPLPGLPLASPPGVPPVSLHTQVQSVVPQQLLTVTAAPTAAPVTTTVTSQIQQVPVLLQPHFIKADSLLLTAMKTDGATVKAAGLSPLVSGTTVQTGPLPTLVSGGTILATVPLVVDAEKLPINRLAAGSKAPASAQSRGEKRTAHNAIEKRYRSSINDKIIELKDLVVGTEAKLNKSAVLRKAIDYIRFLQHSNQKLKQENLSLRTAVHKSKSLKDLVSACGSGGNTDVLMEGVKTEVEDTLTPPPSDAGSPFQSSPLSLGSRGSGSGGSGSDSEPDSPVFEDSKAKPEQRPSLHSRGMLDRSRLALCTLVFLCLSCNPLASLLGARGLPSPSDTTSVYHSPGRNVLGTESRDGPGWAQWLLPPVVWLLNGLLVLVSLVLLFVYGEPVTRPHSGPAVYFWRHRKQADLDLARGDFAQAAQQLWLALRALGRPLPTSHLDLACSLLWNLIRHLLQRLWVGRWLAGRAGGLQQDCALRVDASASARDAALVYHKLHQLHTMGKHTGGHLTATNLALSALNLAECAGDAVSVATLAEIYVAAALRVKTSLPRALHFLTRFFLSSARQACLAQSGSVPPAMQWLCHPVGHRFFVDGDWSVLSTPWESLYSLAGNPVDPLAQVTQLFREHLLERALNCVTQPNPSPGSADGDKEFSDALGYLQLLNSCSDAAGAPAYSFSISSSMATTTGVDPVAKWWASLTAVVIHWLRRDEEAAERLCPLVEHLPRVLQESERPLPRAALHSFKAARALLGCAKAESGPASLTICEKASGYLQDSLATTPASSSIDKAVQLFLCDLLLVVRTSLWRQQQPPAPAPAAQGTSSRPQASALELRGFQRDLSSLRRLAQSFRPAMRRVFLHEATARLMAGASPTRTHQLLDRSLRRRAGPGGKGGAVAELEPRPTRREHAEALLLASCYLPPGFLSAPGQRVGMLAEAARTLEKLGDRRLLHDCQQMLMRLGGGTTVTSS
Chain of UniProt Q92692 (whole entry, looked up): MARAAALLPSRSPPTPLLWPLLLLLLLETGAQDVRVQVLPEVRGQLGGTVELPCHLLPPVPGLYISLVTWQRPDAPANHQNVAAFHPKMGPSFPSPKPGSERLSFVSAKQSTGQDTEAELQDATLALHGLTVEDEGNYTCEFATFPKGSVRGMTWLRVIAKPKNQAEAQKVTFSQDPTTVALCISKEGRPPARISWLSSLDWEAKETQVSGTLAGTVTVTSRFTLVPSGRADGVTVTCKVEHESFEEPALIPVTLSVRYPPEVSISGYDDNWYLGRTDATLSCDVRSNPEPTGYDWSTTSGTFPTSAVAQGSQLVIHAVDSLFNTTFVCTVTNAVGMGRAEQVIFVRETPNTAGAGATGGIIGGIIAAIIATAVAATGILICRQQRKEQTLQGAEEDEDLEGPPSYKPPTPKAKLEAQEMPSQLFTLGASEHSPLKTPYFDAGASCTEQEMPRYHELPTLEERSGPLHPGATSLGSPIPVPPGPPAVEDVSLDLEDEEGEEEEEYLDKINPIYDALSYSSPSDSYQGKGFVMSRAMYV

B1 (ING2 189-262 E205A)  molecule per partner (histone H3 1-10, K4me3; ITC): 1.17 ± 0.02
B2 (PVRIG 41-172)  molecule per partner (NECTIN2 32-350 (Homo sapiens, UniProt Q92692); SEC-MALS): 1
ARKSTGGKAPRKQ (histone H3 peptide 8-20 (UniProt P68431); K9ac; sequence looked up)  molecule per partner (YEATS4 19-159 (Homo sapiens, UniProt O95619); ITC; peptide): 0.98 ± 0.09
FGA (Homo sapiens, UniProt P02671)  cross-linked residues (PDE4DIP (Homo sapiens, UniProt Q5VU43); cross-linking MS; added: DSSO): K440 to K504
Polymyxin B  log2 fold change (untargeted LC-MS metabolomics, refers to: 1-methylhistamine; Sprague-Dawley rat, right cerebral cortex; intracerebroventricular, 0.75 mg/kg, 1 h; reference: NaCl control): -3.6
DPSDYAEPMDAVVKPRNEEENIYSVPHDS (ARHGAP35 residues 1083-1111; pY1087/pY1105, N-acetyl, C-amide)  molecule per partner (RASA1 174-444 C236S/C261S/C372S/C402S (Homo sapiens, UniProt P20936); ITC; peptide): 1.45 and 1.36 and 1.41
TERLVLRLNRKKKKVSWKDGTVDNE (INH3 27-51 (Arabidopsis thaliana, UniProt Q8S8F7))  molecule per partner (PUX4 (Arabidopsis thaliana, UniProt Q8RWU7); ITC; peptide): 1.2 ± 0.1
FGB (Homo sapiens, UniProt P02675)  cross-linked residues (ITIH2 (Homo sapiens, UniProt P19823); cross-linking MS; added: DSSO): K374 to K810
Peginesatide  mRNA level (UT7/EPO; microarray, refers to: PLSCR1 mRNA (probe set 241916_at); 20 nM, 90 min; reference: vehicle): 2.7 fold
ING2 PHD finger (Arabidopsis thaliana)  molecule per partner (H3 residues 1-10, K4me2; ITC): 1.09 ± 0.02
DLDSDDEY (TELO2 488-494 (Homo sapiens); pS491)  molecule per partner (PIH1D1 51-180 K113A (Homo sapiens, UniProt Q9NWS0); ITC; peptide): 0.7
caspofungin  alkaline phosphatase (adult ICU patients, mITT, serum; dose not given, day 14): 168 U/L
ASCC3 C-degron  molecule per partner (APPBP2/ELOB/ELOC C54A/H89A (Homo sapiens); ITC): 0.76
insulin  concentration (LC-MS/MS; prepared human sample; one freeze-thaw cycle): 11.2 ng/mL
ARTKQTARKSTG (histone H3 peptide 1-12; K4me1)  molecule per partner (Ehd3 (Oryza sativa, UniProt Q6ZJM9); ITC; peptide): 0.75
ING1 PHD finger (Arabidopsis thaliana)  molecule per partner (histone H3 1-10, K4me3; ITC): 1.06
BzATP  normalized current (P2X purinoceptor 7 (P2rx7, Rattus norvegicus, UniProt Q64663, Q143A); ion current, agonist, two-electrode voltage clamp; Xenopus oocytes; 0.14 µM): 0.0123 and 0.023 and 0.056
B3 (ING1 163-234 M191A)  molecule per partner (histone H3 1-10, K4me3; ITC): 1.02 ± 0.01
EGF mature  molecule per partner (EGFR Fc fusion fragment (Homo sapiens); ITC): 0.73 ± 0.0016 sites
colistin  MIC (Pseudomonas aeruginosa; clinical isolate RKI 484/12): ≤ 1 µg/mL
YAGSDSDLDSDDEFVPY (TELO2 483-497 (Homo sapiens); pS487)  molecule per partner (PIH1D1; ITC; peptide): 0.9
EEQWAREIGAQLRRMADDLNAQYER (BBC3 BH3 peptide 68-92 (Homo sapiens); N-acetyl, C-terminal amide)  molecule per partner (BCL2L1 BCL-xL ΔC H to A (Homo sapiens); ITC; peptide): 1.03
SQAPARPPKPRPRRTAY (Cbl-b residues 899-915)  molecule per partner (SH3KBP1 1-58 (Homo sapiens, UniProt Q96B97); ITC; peptide; 25 °C): 0.9 ± 0.2
B4 (SEPTIN6)  molecule per partner (Septin2 (Mus musculus, UniProt P42208); co-sedimentation): 1
YAGSDSDLDTDDEFVPY (TELO2 483-497 (Homo sapiens); pT491)  molecule per partner (PIH1D1; ITC; peptide): 0.7
B5 (ING2 189-262 Y208A)  molecule per partner (histone H3 1-10, K4me3; ITC): 1.1 ± 0.04
B6 (LMNA 389-572)  molecule per partner (SREBF1 227-487 (Homo sapiens, UniProt P36956); ITC): 1
B7 (mdfA)  molecule per partner (clpC N domain 1-150 (Bacillus subtilis, UniProt P37571); ITC): 0.82 sites
SAAAAGDDDDLYN (CDC48A 797-809 (Arabidopsis thaliana))  molecule per partner (PUX2 157-273 (Arabidopsis thaliana, UniProt Q9ZU93); ITC; peptide; 25 °C): 1.2 ± 0.1
GRIN2A fragment (sequence not shown)  molecule per partner (SNX27 fragment (Rattus norvegicus); ITC): 1.2
11-deoxycorticosterone  Kd (CYP11B2 (human); substrate binding, stopped-flow global kinetic fitting; purified enzyme; model, 4-state, linear IF, added: 10-fold excess adrenodoxin): 1.52 µM

A few entries again:
B2 (PVRIG 41-172)  molecule per partner (NECTIN2 32-350 (Homo sapiens, UniProt Q92692); SEC-MALS): 1
ARKSTGGKAPRKQ (histone H3 peptide 8-20 (UniProt P68431); K9ac; sequence looked up)  molecule per partner (YEATS4 19-159 (Homo sapiens, UniProt O95619); ITC; peptide): 0.98 ± 0.09
FGA (Homo sapiens, UniProt P02671)  cross-linked residues (PDE4DIP (Homo sapiens, UniProt Q5VU43); cross-linking MS; added: DSSO): K440 to K504
Polymyxin B  log2 fold change (untargeted LC-MS metabolomics, refers to: 1-methylhistamine; Sprague-Dawley rat, right cerebral cortex; intracerebroventricular, 0.75 mg/kg, 1 h; reference: NaCl control): -3.6
